Measurements collected from several papers.
Lines come from different studies, so protocols differ. Several values in a cell are separate wells, animals, samples, runs or records. Numbers after ± are the reported error.

NNc1nc(-c2ccc(Cl)cc2)c2c(NC(=O)c3ccccc3)nnc-2[nH]1  cell growth (M14; SRB; 10 µM, NCI60 single-dose screen; relative to: untreated): 102%
N#CC1=C(N)n2c(s/c(=C\c3cccs3)c2=O)=C(C#N)C1c1cccs1 (stereo not shown)  efficacy (C127 LDR GFP reporter cells; silenced GFP reporter induction, activator, high-content imaging; retest, two-run mean): 24%
Clc1ccc(C2(c3ccc(-c4cn[nH]c4)cc3)CCNCC2)cc1  Mcl-1 MFI (primary CLL cells; flow cytometry; human; 0.1 µM, 24 h; relative to: DMSO, higher = more protein): 1190 a.u.
CCOc1ccc(NC(=O)c2nc(S(=O)(=O)Cc3ccccc3F)ncc2Cl)cc1  efficacy (C127 LDR GFP reporter cells; silenced GFP reporter induction, activator, high-content imaging; retest, two-run mean): 46%
CC[C@H](C)N(CC(=O)N(CC(=O)N(CC(=O)N(CC(=O)N(CC(=O)N(CC(=O)N(CC(N)=O)[C@@H](C)c1ccccc1)[C@@H](C)c1ccccc1)[C@@H](C)CC)[C@@H](C)c1ccccc1)[C@@H](C)c1ccccc1)[C@@H](C)CC)C(=O)CNCCCCN  cytokine release (THP-1 macrophages; item: IL-6; 50 µM, 72 h, with: LPS 2 ng/mL; relative to: LPS alone): decreased
C[C@H]1[C@@H](O)O[C@@H]2O[C@@]3(C)CC[C@H]4[C@H](C)CC[C@@H]1[C@@]24OO3  viable cells (THP-1; annexin V/PI flow cytometry, item: annexin V-/PI-; 3.2 µM, 24 h): 95.9%
O=C(CCCSc1nc2ccccc2c(=O)[nH]1)Nc1ccc(F)cc1  inhibition (cells, COS-1, expressing proMMP-9; cell migration, 2D collagen dot migration; 50 µM, 18 h): 73 ± 2%
C[n+]1cc2c3c(ccc2c2ccc4cc5c(cc4c21)OCO5)OCO3  MyBP-C level (MYBPC3 iPSC cardiomyocytes; plate-normalised; concentration not given, 24 h, hit retest): 0.1%
Cc1cc(Nc2ncc(Cl)c(Nc3ccccc3S(=O)(=O)C(C)C)n2)c(OC(C)C)cc1C1CCNCC1  log2 fold change (CLB-BAR; phosphoproteomics LC-MS/MS, item: BOD1L phosphorylation; 200 nM, 60 min; relative to: untreated): -1.64
CCCCc1oc2ccc(NS(C)(=O)=O)cc2c1C(=O)c1ccc(OCCCN(CCCC)CCCC)cc1  fold change (human embryonic stem cell aggregates; mRNA level, microarray, item: TTR; 0.5 µM, 120 h; relative to: untreated, up-regulated): 1.7 fold
CCCc1cc(=O)nc(SCC(=O)Nc2nc3ccccc3[nH]2)[nH]1  inhibition (cells, COS-1, expressing proMMP-9; cell migration, 2D collagen dot migration; 50 µM, 18 h): 61 ± 2%
O=C(/C=C/C=C/C=C/C1CCCCC1)NC1=C[C@@](O)(/C=C/C=C/C=C/C(=O)NC2=C(O)CCC2=O)[C@@H]2O[C@@H]2C1=O  GI50 (KYSE-30; cell growth, CellTiter-Glo; 78 h): 10500 nM
CC(=O)Nc1cccc(-n2c(=O)n(C3CC3)c(=O)c3c(Nc4ccc(I)cc4F)n(C)c(=O)c(C)c32)c1  fractional effect (LoVo (KRAS G13D); cell viability, resazurin; 1.56 nM, 72 h; relative to: DMSO): 0.168 and 0.197
CCCN1CCN(c2ccc3nc(-c4ccc5nc(-c6cc(OC)ccc6OC)[nH]c5c4)[nH]c3c2)CC1  growth percent (M14; SRB; 10 µM, 48 h): 111%
CN(C)CCCOc1cc(NC(=O)c2cccc(C(=O)Nc3cc(OCCCN(C)C)c4ccccc4n3)n2)nc2ccccc12  selectivity ratio (U2OS; cell viability, CellTiter-Glo; 72 h; relative to: IC50 U2OS over WI-38): 1
COc1cnc2cccc(N3CCc4c(cc(Cn5ccnc5C)cc4-c4cn(C)nc4C(F)(F)F)C3=O)c2c1  EC50 (NCI-H446; cell growth, inhibitor; 120 h): > 30000 nM
Cn1cc(-c2ccc(-c3cncc(Cl)c3N3CCC4(CCNC4=O)CC3)cc2)cn1  log2 fold change (COLO 205; gene expression, microarray, item: SGK1 mRNA; concentration not given, 6 h; relative to: untreated cells): 4.59
O=C(COc1ccc(Cl)cc1)NC1CCC(NC(=O)COc2ccc(Cl)cc2)CC1 (stereo not shown)  mitochondrial-nuclear distance (MFN2-deficient and wild-type U2OS; PGL-induced mitochondrial distribution; 200 nM, 6 h, with: PGL): inhibited
CC(C)(C)CC(C)(C)c1ccc(O)c(Cc2ccc(Cl)cc2Cl)c1  activity score (human iPSC-derived cardiomyocytes; MyBP-C/MYH ratio, plate-normalised SD score; concentration not given, primary screen; direction not given): 12.9
COc1ccc(-n2nc(C(C)=O)s/c2=N\N=C(/C)c2ccc(NC(=O)c3ccc(C)cc3)cc2)cc1  viability (MCF7; 10 µM): 2.89%
CC(C)=CCc1c2c(c3occ(-c4ccc(O)c(O)c4)c(=O)c3c1O)C=CC(C)(C)O2  activity score (human iPSC-derived cardiomyocytes; MyBP-C/MYH ratio, plate-normalised SD score; concentration not given, primary screen; direction not given): 9.4
O=C(O)CCCCCN1C(=O)/C(=C\c2ccc(-c3ccc(Cl)cc3)o2)SC1=S  efficacy (C127 LDR GFP reporter cells; silenced GFP reporter induction, activator, high-content imaging; retest, two-run mean): 109%
O=C(Nc1nnc2n3c(nc(-c4ccc(Cl)cc4)c1-2)SCC3=O)c1ccccc1  cell growth (M14; SRB; 10 µM, NCI60 single-dose screen; relative to: untreated): 104%
Clc1nc(NCc2ccco2)c2[nH]cnc2n1  ΔPSI (FD iPSC-derived cardiomyocytes; alternative splicing, RNA-seq, item: CMYA5 exon chr5:79747090-79747113; unit not given; relative to: DMSO minus compound): 0.2
Cc1c(C(=O)O)ccc2c3n(nc12)[C@@H]1[C@H](C3)N(CC2CC2)[C@@]2(C(=O)Nc3cc(Cl)ccc32)[C@H]1c1cccc(Cl)c1F  GI50 (JAR; cell growth, alamarBlue; unbound): 0.85 nM
COc1ccc(Nc2nc3c(S(=O)(=O)c4ccccc4)nnn3c3ccc(Cl)cc23)cc1  efficacy (C127 LDR GFP reporter cells; silenced GFP reporter induction, activator, high-content imaging; retest, two-run mean): 36%
C=CC1=C(C)c2cc3[n-]c(cc4nc(cc5[n-]c(cc1n2)c(C)c5C=C)C(C)=C4CCC(=O)O)c(CCC(=O)O)c3C.[Zn+2]  fold change (SH-SY5Y; RNA-seq, item: TRAF1 mRNA; 5 µM, 5 h; relative to: untreated cells): 3.55
CCn1cc(-c2cc(Cn3ccnc3)cc3c2CCN([C@H](c2cc(OC)ccn2)C2CC2)C3=O)c(C(F)(F)F)n1  EC50 (HT; cell growth; 120 h): 25.5 nM
CC(C)NCC(O)c1ccc(O)c(O)c1 (stereo not shown)  sarcomere length (mouse ventricular cardiomyocytes; dose not given, 0.331 s): 1.8 µm
COc1cc(/C=C/c2ccc(O)cc2)cc(OC)c1  MyBP-C level (MYBPC3 iPSC cardiomyocytes; plate-normalised; concentration not given, 24 h, hit retest): 0.7%
COc1cccc2c1C(=O)c1c(O)c3c(c(O)c1C2=O)C[C@@](O)(C(=O)CO)C[C@@H]3O[C@H]1C[C@H](N)[C@H](O)[C@H](C)O1  point of departure (HepG2; item: PERK protein; 24 h, distribution mode 1): 0.0324 µM
C#C[C@@]1(O)[C@@H](CO)O[C@@H](n2ccc3c(N)ncnc32)[C@@H]1O  TGI (M14; SRB; NCI-60 screen): 3000 nM
COc1cc(/C=C/C(=O)CC(=O)/C=C/c2ccc(O)c(OC)c2)ccc1O  inhibition (human cryopreserved primary enterocytes; androstenedione formation; 100 µM): ~50%
CN1CCN(CCCN2c3ccccc3Sc3ccc(C(F)(F)F)cc32)CC1  activity score (human iPSC-derived cardiomyocytes; MyBP-C/MYH ratio, plate-normalised SD score; concentration not given, primary screen; direction not given): 5.2
Nc1cccc2c1C(=O)N(C1CCC(=O)NC1=O)C2=O (stereo not shown)  surface marker level (RPMI-8226; flow cytometry, item: CD30; concentration not given; relative to: comparator compound alone): 397%
CCCCc1nc(Cl)c(CO)n1Cc1ccc(-c2ccccc2-c2nn[nH]n2)cc1  log2 fold change (human PBMC; RNA-seq, item: CD1D mRNA; 10 µg/mL, 24 h; relative to: untreated control): -1.6
C=Cc1c2[n-]c(c1C)/C=c1\[n-]/c(c(C)c1C=C)=C\c1[n-]c(c(CCC(=O)O)c1C)/C=c1\[n-]c(c(C)c1CCC(=O)O)=C2.[Sn+4]  fold change (SH-SY5Y; RNA-seq, item: ERRFI1 mRNA; 5 µM, 5 h; relative to: untreated cells): 2.12
O=C(Cn1c(=O)n(Cc2ccc(F)cc2)c(=O)c2sc3ccccc3c21)Nc1ccc(F)cc1F  efficacy (C127 LDR GFP reporter cells; silenced GFP reporter induction, activator, high-content imaging; retest, two-run mean): 63%
Cn1cc(Nc2nccc(-c3ccc4c(c3)CN(C3COC3)CC[C@H]4NC(=O)c3cn(C(C)(C)C)nn3)n2)cn1  pathway activation z-score (mouse splenic B cells; item: IL-7 signalling pathway; 30 mg/kg, IgD-activated in vivo; relative to: vehicle, direction not given): 0.277
Cn1cncc1C1=CN(c2ncnc3[nH]cnc23)CCS1  GI50 (M14; melanoma cell line): 8500 nM
Nc1nccs1  activity score (human iPSC-derived cardiomyocytes; MyBP-C/MYH ratio, plate-normalised SD score; concentration not given, primary screen; direction not given): 4.5
C=CCn1c(=O)c2cnc(Nc3ccc(N4CCN(C)CC4)cc3)nc2n1-c1ccc2c(n1)[C@@](O)(CC)CC2  EdU-negative S phase mitotic cells (MDA-MB-231; flow cytometry; concentration not given): 2.73%
CCn1cc(-c2cc(Cn3ccoc3=N)cc3c2CCN([C@@H](C)c2cc(OC)ccn2)C3=O)c(C(F)(F)F)n1  EC50 (SK-BR-3; cell growth, inhibitor; 120 h): 613 nM
CC1(C)CCC2=C(O1)c1ccccc1C(=O)C2=O  activity score (human iPSC-derived cardiomyocytes; MyBP-C/MYH ratio, plate-normalised SD score; concentration not given, primary screen; direction not given): 9.2
O=C(Nc1cc(OCCN2CCCC2)c2ccccc2n1)c1cc(OCCN2CCCC2)cc(C(=O)Nc2cc(OCCN3CCCC3)c3ccccc3n2)n1  selectivity ratio (U2OS; cell viability, CellTiter-Glo; 72 h; relative to: IC50 U2OS over WI-38): 1
CC/C(=N\NC(=O)NCc1cccc(O)c1)c1ccc(O)c(C)c1O  log ratio (SK-OV-3; gene expression, microarray, item: ADAMTS1; 10 µM, 24 h; relative to: DMSO): 4.42
Cc1ccc(NC(=O)c2c(C)nc3sc(C(=O)NC4CCCC4)c(N)c3c2-c2ccco2)c(C)c1  efficacy (C127 LDR GFP reporter cells; silenced GFP reporter induction, activator, high-content imaging; retest, two-run mean): 50%
O=C(/C=C/c1ccccc1)c1ccc(O[C@@H]2O[C@H](CO)[C@@H](O)[C@H](O)[C@H]2O)cc1O  activity score (human iPSC-derived cardiomyocytes; MyBP-C/MYH ratio, plate-normalised SD score; concentration not given, primary screen; direction not given): -3.1
CC(=O)c1nn(-c2ccc(Cl)cc2)/c(=N/N=C(\C)c2ccc(NC(=O)c3ccccc3)cc2)s1  toxicity (HepG2; 10 µM): 96.4%
